Results collected from several papers.
Parts stem from different laboratories: compare values within a part only.

Sample 1 — method: protein-binding microarray; molecule type: double-stranded DNA, one strand shown; sample: in vitro; tested at: not given; direction: higher = stronger binding; measurement: E-score
Target: Myc proto-oncogene protein, bHLH-zipper, MAX partner unstated (MYC, Homo sapiens, UniProt P01106, residues 368-449)
Sequence of UniProt P01106 (368-449, looked up): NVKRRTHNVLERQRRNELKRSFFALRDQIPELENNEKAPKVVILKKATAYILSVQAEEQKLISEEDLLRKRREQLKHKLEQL
Notes: k-mer, scored over probes, only values ≥0.25
CCCCACCC: 0.314
CTCGTGAC: 0.396
CGCGGGGA: 0.276
CAGGTGGA: 0.297
CGCAACAC: 0.252
CCACGCAG: 0.378
CGAGCCAC: 0.321
CACCTGCA: 0.257
CGGCGTGC: 0.427
CGTGGTAA: 0.408
CTGCGGCC: 0.264
CCCCCTGC: 0.25
CAGTCACG: 0.345
CGTGACTC: 0.267
ATGGCCTC: 0.251
CACGGTGC: 0.334

Sample 2 — method: RNAcompete; molecule type: RNA; sample: in vitro; tested at: 20 nM; notes: 7-mer, probes averaged, single round; baseline: mean of 7-mers; direction: higher = stronger binding; measurement: 7-mer Z-score
Target: PABPC1L2, full length, GST fusion (mouse, UniProt A0ABA7IW68)
Target sequence (chain): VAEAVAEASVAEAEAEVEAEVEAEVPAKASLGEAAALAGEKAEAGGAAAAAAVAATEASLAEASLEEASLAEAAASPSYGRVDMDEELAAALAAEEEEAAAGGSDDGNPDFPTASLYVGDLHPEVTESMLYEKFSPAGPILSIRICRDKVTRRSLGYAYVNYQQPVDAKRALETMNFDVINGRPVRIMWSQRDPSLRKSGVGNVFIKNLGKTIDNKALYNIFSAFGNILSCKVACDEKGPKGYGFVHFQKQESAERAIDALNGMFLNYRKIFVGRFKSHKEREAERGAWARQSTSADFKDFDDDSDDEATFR
AGGCAAC: 0.24
AUCUCAU: -0.215
ACCAAAC: 0.481
UUCUUUG: -0.286
AGAGCCC: -0.271
CCUAGUU: -0.398
GGAAAUG: 0.0388
UGAGAGC: -0.17
CAUAGCA: -0.151
GGUUGAU: -0.0228
GUCUGGC: -0.0554
UCCUAGG: -0.168
UUUCAAU: -0.32
GAGUCUU: -0.499
UUGGUUC: -0.304
AUGUCAA: -0.121
UCGUCAU: -0.403
UAAAGGU: 0.566

Sample 3 — method: RNA Bind-n-Seq; molecule type: RNA; sample: in vitro; tested at: not given; notes: 4-mer, random 30-nt RNA, single round; with: RocA, ADP, phosphate; baseline: input library; direction: higher = stronger binding; measurement: 4-mer enrichment
Target: Eukaryotic initiation factor 4A-I (EIF4A1, Homo sapiens, UniProt P60842, residues 1-406, full length assumed)
Sequence of UniProt P60842 (whole entry, looked up): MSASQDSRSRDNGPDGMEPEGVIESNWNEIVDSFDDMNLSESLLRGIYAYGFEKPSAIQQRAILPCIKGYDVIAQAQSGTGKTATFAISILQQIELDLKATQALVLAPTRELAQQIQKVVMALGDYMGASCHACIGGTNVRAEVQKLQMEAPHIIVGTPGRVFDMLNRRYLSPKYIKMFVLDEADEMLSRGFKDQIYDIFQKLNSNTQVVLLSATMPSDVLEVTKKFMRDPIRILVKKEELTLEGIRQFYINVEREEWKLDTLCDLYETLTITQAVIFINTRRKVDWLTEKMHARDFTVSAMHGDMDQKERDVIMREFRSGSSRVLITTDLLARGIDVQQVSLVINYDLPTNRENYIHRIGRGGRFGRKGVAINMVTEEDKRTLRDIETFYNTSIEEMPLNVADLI
CUCA: 0.491 fold
AGGG: 1.43 fold
UCCA: 0.58 fold
CGAA: 0.98 fold
GGCU: 0.683 fold
GUAA: 1.13 fold
CGGU: 0.758 fold
GUGG: 1.31 fold
GCAU: 0.842 fold
GAUA: 0.999 fold
UGAC: 0.684 fold
GAGG: 2.07 fold
GCAG: 0.98 fold
UCUU: 0.586 fold
CACU: 0.582 fold
AUCG: 0.779 fold
GAAG: 1.6 fold
CCCU: 0.597 fold
CGAG: 1.75 fold
UUGA: 1.49 fold
GCGC: 0.74 fold
ACGG: 0.876 fold
GGUU: 0.99 fold
UCCU: 0.536 fold
UGCC: 0.612 fold

Sample 4 — method: RNA Bind-n-Seq; molecule type: RNA; sample: in vitro; tested at: 365 nM; baseline: no-protein control; direction: higher = stronger binding; measurement: RBNS enrichment (R)
Target: RNA binding protein fox-1 homolog 2, RRM domain, GST-SBP tag (RBFOX2, Homo sapiens, UniProt O43251-10, residues 100-194)
Notes: natural RNA segment, single round, ends assumed
Residues (chain): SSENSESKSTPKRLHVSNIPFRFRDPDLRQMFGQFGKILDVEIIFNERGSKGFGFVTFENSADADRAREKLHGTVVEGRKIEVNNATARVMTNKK
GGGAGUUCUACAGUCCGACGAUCUAAAUGUGGUCUUUGCCAACUAAAUUUAAGAUGCAGCAUUUUAGAAAUUUACAUAUCAAUGUUUCUACAGUAUUGUUUGCUAAUUUUUAAAUAAAGUCAUGAUCAGUGUGUGGAAUUCUCGGGUGCCAA: 0.879
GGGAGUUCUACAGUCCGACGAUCUUCACAGGUACCCUCCCUCGGGCCCUUUUGAUUCUGGGAGUUAGGUUGUGUUUUAUGUUCUUAGAGGACAUAUUUUUGAUGAGGCCAAAACUGCUGUUCUGUUUCGUUGAUGGAAUUCUCGGGUGCCAA: 0.438
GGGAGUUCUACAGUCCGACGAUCCAUGCUCCCUUUCUCGGCACCCCCUUGUUGGAGAUGGAGGCAGCAGACGUGCAGUGCCAUAAGGUGCCCCAGUCCUUCUGGAGGCCUGGGCUGCUACUGUUGGCCACCCUUGGAAUUCUCGGGUGCCAA: 0.297
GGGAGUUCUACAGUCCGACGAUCUCACCCAAGUCACAGGAUGAUUAUUAAAAGAACACACACACCAAAAAACAUACUUAUCCUAAAGAGAUGGUGAGAUAUAACAUGCCUUAAAUUAUAUUAUAGAAUUUAAAUGGAAUUCUCGGGUGCCAA: 0.64
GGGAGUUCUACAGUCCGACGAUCCCCACGCUGUGCUUCUCUGCUUGCAUUUCCAGGGAGACCGUGUUUUGAACCGCAUCACCUUUCCUUGGCUUAAGCAUUCGUUACUAAUGGCAGGAAAGUCUUCCCUUCUAUGGAAUUCUCGGGUGCCAA: 2.15
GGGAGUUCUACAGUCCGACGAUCUAGACUUGGACAUCUCUCUGGCUUCUGAAGAGCCUGAAGCUGGCCUGGACCAUUCCUGUCCCUUUGUUACCAUACUGUCUCUGGAGUGAUGGUGUCCUUCCCUGCCCCACUGGAAUUCUCGGGUGCCAA: 0.383
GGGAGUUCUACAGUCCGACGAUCGUACUGGACUACCACAGGUUUUUAGGAACUAAGGUGUUUCUCAUAAACACAAAAUGUUGGGUGAAACUGGGAACAACUACUCAGAAGCUCAUUUAUUUGCUUAAAUGGAAUGGAAUUCUCGGGUGCCAA: 0.317
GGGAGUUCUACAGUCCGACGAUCAAGCAGUGUUAGUGAGAGGUGCAAAGAAUUAUUCUAACAGACACCUGAAAGUAUCUGUAAGCAAUACUAGUAGGUAAGAUUUCACUGUGUGUACACAUACACAUUUGAGAUGGAAUUCUCGGGUGCCAA: 0.397

Sample 5 — method: protein-binding microarray; molecule type: double-stranded DNA, one strand shown; sample: in vitro; tested at: 2540 nM top; notes: 60-bp whole probe; with: salmon DNA 0.4 mg/ml; baseline: random background probes; direction: higher = stronger binding; measurement: fitted relative affinity; constant ends, left off below: GCCTAGCAC … GTCTTGATTCGCTTGACGCTGCTG
Target: Interferon regulatory factor 3, full length, phosphomimetic (IRF3, Homo sapiens, UniProt Q14653, residues 1-427, S386D/S396D/S398D/S402D/T404D/S405D)
Sequence of UniProt Q14653 (whole entry, unmodified, looked up): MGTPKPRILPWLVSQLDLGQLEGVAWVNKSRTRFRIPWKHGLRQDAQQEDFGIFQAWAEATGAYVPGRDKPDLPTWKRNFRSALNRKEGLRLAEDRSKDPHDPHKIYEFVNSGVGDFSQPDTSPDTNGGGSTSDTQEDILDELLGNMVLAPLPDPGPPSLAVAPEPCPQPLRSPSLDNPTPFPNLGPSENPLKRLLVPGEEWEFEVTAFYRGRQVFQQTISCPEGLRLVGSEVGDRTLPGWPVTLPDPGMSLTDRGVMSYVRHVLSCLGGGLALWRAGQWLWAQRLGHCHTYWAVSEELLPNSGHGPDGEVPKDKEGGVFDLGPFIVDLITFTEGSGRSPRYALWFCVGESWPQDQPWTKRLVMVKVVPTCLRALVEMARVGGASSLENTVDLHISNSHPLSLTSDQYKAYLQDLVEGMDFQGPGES
TAAGGTTCCCTTTTCCTTTAGTGCTAG: 7.78 z-score
TCACTTTCCTTCTTGATACTGTGCTAG: 9.83 z-score
TTAGGTCTCGGACTGGGTGAGTGCTAG: -0.419 z-score
TTAGAGCTCAGTTTCGATTAGTGCTAG: 3.46 z-score
GCCGGTATCGGGTATCGGGACGTGCTA: 2.37 z-score
GACGGTATCGGTCTCGCGACGTGCTAG: 4.39 z-score
TTAGATATCTGGTTTCGATTAGTGCTA: 2.75 z-score
GACGGTATCGGGACTGGAGACGTGCTA: 2.01 z-score
TCAGACCTCGTCTCTATCACTGTGCTA: -0.0994 z-score
TTAGGTCTCCTTATCCTCTAGTGCTAG: 2.83 z-score
TTAGATATCGGGTCTCGATTAGTGCTA: 0.535 z-score
CACGGACTGGACACTGGGGACGTGCTA: -0.624 z-score
AGGACTCTGGAGGTTGAGAAAGTGCTA: -1.14 z-score
TCATCTCTGCTTCTGTAACTGTGCTAG: 0.845 z-score
TCATATTTAAGGCCTATGACTGTGCTA: 0.358 z-score
GACGGTTTGGGGACTGGGGACGTGCTA: -0.315 z-score
TTAGATATCGGCACTGGATTAGTGCTA: -0.499 z-score
TCATAATTCTTTGCTCATACTGTGCTA: 0.273 z-score
GACGAACTGGAGTTTCGAGACGTGCTA: 0.904 z-score

Some of these lines once more (sample 5):
TTAGGTCTCCTTATCCTCTAGTGCTAG: 2.83 z-score
TCATATTTAAGGCCTATGACTGTGCTA: 0.358 z-score
GACGGTATCGGTCTCGCGACGTGCTAG: 4.39 z-score
GACGAACTGGAGTTTCGAGACGTGCTA: 0.904 z-score
TCACTTTCCTTCTTGATACTGTGCTAG: 9.83 z-score
TTAGATATCGGCACTGGATTAGTGCTA: -0.499 z-score
